# Measurements of several laboratories.
# Protocols differ between the studies behind these lines. “And” joins repeats or separate records; there may be more than shown. ± marks the error that the study gave.
SMILES,organism,test,test system,setting,how to read,quantity,result
COc1ccc2[nH]c3c4[nH]c5ccc(OC)cc5c4c4c(c3c2c1)C(=O)NC4=O,Aspergillus fumigatus,,,20 µM,reference: untreated,metabolic activity,≥ 80%
CCCC(CCC)C(=O)Nc1ccccc1O,Artemia franciscana,"LC-MS/MS metabolomics, item: 1-aminocyclopropanecarboxylic acid",larvae,"concentration not given, 24 h, LC1 concentration",reference: vehicle,fold change,1.39
C#Cc1ccc(O)c(C=NNC(=O)c2ccc(C3(C(F)(F)F)N=N3)cc2)c1,Aspergillus fumigatus,,293,"unit not given, together with: voriconazole",lower = more synergy,FICI,2
CNCC(=O)N[C@@H](CO)C(=O)N[C@H]1[C@H](O)[C@@H](O)[C@H](n2ccc(N)nc2=O)O[C@@H]1C(N)=O,tobacco mosaic virus,inactivation activity,in vivo plant,,,EC50,77.4 ± 1.3 µg/mL
COc1cc([C@@H]2c3cc4c(cc3[C@H](O)[C@H]3COC(=O)[C@@H]23)OCO4)cc(OC)c1OC,murine hepatitis virus,"viral replication, nanoluciferase reporter",DBT,"1 µM, 10 h",reference: DMSO vehicle,inhibition,44%
Nc1ncnc2c1ncn2[C@@H]1O[C@@H]2COP(=O)(O)O[C@H]3[C@@H](O)[C@H](n4cnc5c(=O)[nH]cnc54)O[C@@H]3COP(=O)(O)O[C@H]2[C@H]1O,West Nile virus,"RNA sequencing, item: elastic fibre associated molecules R-HSA-2129379",HFF-1 cells,"concentration not given, downregulated pathway",reference: WNV-infected untreated cells,fold enrichment,7.44
COc1cc2oc([N+](=O)[O-])cc2c2ccccc12,Enterobacter cloacae,REMA,,,,MIC90,> 32 µg/mL
CC(=O)C1=CC[C@H]2[C@@H]3CCC4=CC(=O)CC[C@]4(C)[C@H]3C[C@@H](O)[C@]12C,Leishmania mexicana,"parasite growth, propidium iodide flow cytometry",promastigotes,48 h,,IC50,9.2 µM
CC(=O)N1CCN(c2ccc(OCC3COC(Cn4ccnc4)(c4ccc(Cl)cc4Cl)O3)cc2)CC1 (centres unmarked),Candida parapsilosis,,CGMCC 2.399,"48 h, 30 °C",,MFC,32 µM
Cc1cn(-c2cc(NC(=O)c3ccc4c(c3)CN(c3cncnc3)C[C@@H]4C)cc(C(F)(F)F)c2)cn1,murine hepatitis virus,"viral replication, nanoluciferase reporter",DBT,"1 µM, 10 h",reference: DMSO vehicle,inhibition,16%
Cc1c2c(nn1C)CSCc1cc(n(C)n1)CSc1cc(c3ccccc3c1)OCCCc1c(C(=O)O)n(C)c3c-2c(Cl)ccc13,Staphylococcus aureus,"label-free quantitative proteomics, item: IlvC protein",SA113,concentration not given,reference: untreated control,log2 fold change,5.69
N#Cc1ccc2c(ccc3oc([N+](=O)[O-])cc32)c1,Mycobacterium avium subsp. hominissuis,REMA,ATCC 25291,,,MIC90,> 32 µg/mL
CC(C)[C@H](NC(=O)[C@H](CCCNC(=N)N)NC(=O)[C@H](Cc1c[nH]c2ccccc12)NC(=O)[C@H](CCCNC(=N)N)NC(=O)[C@H](Cc1c[nH]c2ccccc12)NC(=O)[C@H](Cc1c[nH]c2ccccc12)NC(=O)[C@H](Cc1c[nH]c2ccccc12)NC(=O)[C@H](CCCNC(=N)N)NC(=O)[C@H](Cc1c[nH]c2ccccc12)NC(=O)[C@@H](N)CCCNC(=N)N)C(N)=O,Candida parapsilosis,broth microdilution,"CGMCC 2.399, RPMI 1640-MOPS","48 h, 30 °C",,MIC,8 µM
NC(=O)c1cnc(N[C@@H]2CCCC[C@@H]2N)nc1Nc1cccc(-n2nccn2)c1,murine hepatitis virus,"viral replication, nanoluciferase reporter",DBT,"1 µM, 10 h",reference: DMSO vehicle,inhibition,40%
CC[C@H](C)[C@H](NC(=O)[C@H](C)NC(=O)[C@H](CCCCN)NC(=O)[C@H](CC(C)C)NC(=O)[C@H](C)NC(=O)[C@@H](NC(=O)[C@H](Cc1c[nH]cn1)NC(=O)[C@H](CC(C)C)NC(=O)[C@@H](NC(=O)[C@@H](NC(=O)[C@H](CCCCN)NC(=O)[C@H](C)NC(=O)[C@H](C)NC(=O)[C@H](CO)NC(=O)[C@H](CCCCN)NC(=O)[C@H](Cc1ccccc1)NC(=O)[C@@H](NC(=O)[C@H](CCCCN)NC(=O)[C@H](CC(C)C)NC(=O)[C@H](Cc1ccccc1)NC(=O)[C@H](CO)NC(=O)[C@H](CCCCN)NC(=O)[C@H](Cc1c[nH]c2ccccc12)NC(=O)[C@H](CCCCN)NC(C)=O)[C@@H](C)O)[C@@H](C)O)C(C)C)[C@@H](C)O)C(=O)N[C@@H](CO)C(=O)N[C@@H](CO)C(N)=O,Klebsiella pneumoniae,,ATCC 1705,,,MIC range,16 µg/mL
COC(=O)C1=C(C)NC(C)=C(C(=O)OC(C)(C)CN(C)CCC(c2ccccc2)c2ccccc2)C1c1cccc([N+](=O)[O-])c1 (centres unmarked),Aspergillus fumigatus,Alamar blue,,"7.8 µg/mL, 48 h, together with: caspofungin 0.2 µg/mL",,metabolic activity,24.8% and 23.7%
C[C@@H](N)[C@H]1CC[C@H](C(=O)Nc2ccncc2)CC1,murine hepatitis virus,"viral replication, nanoluciferase reporter",DBT,1 µM,reference: DMSO vehicle,inhibition,11%
OC(Cn1cncn1)(Cn1cncn1)c1ccc(F)cc1F,Candida parapsilosis,,CGMCC 2.399,"48 h, 30 °C",,MFC,8 µM
CS(=O)(=O)CCCn1c(Cn2c(=O)n(CC(F)(F)F)c3ccncc32)cc2cc(Cl)ccc21,respiratory syncytial virus,RT-qPCR,"hospitalized infants 1-24 months, nasal swab","oral, 8 mg/kg daily, day 14, cohort 6-24 months",reference: placebo,LS mean difference vs placebo,-0.54 log10 copies/mL
Cn1c(=O)ccc2ccc(F)c(CCNC[C@H]3CN(c4cnc5c(n4)NC(=O)CO5)C(=O)O3)c21,Moraxella catarrhalis,,,,,MIC50,< 0.015 µg/mL
CC(=O)C1=CC[C@H]2[C@@H]3C=CC4=CC(=O)CC[C@]4(C)[C@H]3C[C@@H](O)[C@]12C,Leishmania mexicana,"parasite growth, Giemsa stain count","C57BL/6 mouse bone marrow-derived macrophages, amastigotes",48 h,,IC50,3.5 µM
CCOC(=O)COc1ccc2ccc3oc([N+](=O)[O-])cc3c2c1,Mycobacterium avium subsp. hominissuis,REMA,ATCC 25291,,,MIC90,0.0625 µg/mL
CC(C)[C@H](NC(=O)[C@H](CCCNC(=N)N)NC(=O)[C@H](Cc1c[nH]c2ccccc12)NC(=O)[C@H](CCCNC(=N)N)NC(=O)[C@H](Cc1c[nH]c2ccccc12)NC(=O)[C@H](Cc1c[nH]c2ccccc12)NC(=O)[C@H](Cc1c[nH]c2ccccc12)NC(=O)[C@H](CCCNC(=N)N)NC(=O)[C@H](Cc1c[nH]c2ccccc12)NC(=O)[C@H](CCCNC(=N)N)NC(=O)CN)C(N)=O,Candida parapsilosis,broth microdilution,"CGMCC 2.399, RPMI 1640-MOPS","48 h, 30 °C",,MIC,8 µM
Nc1ncnc2c([C@@H]3N[C@H](CO)[C@@H](O)[C@H]3O)c[nH]c12,Measles morbillivirus,viral replication,"Vero 76, Chicago",94.7 µM,,inhibition,74.7%
Cc1nc(C2CCN(C(=O)c3ccc(OC(F)(F)F)cc3N)CC2)c2ncc(N3CCN(C)CC3)cc2n1,murine hepatitis virus,"viral replication, nanoluciferase reporter",DBT,"1 µM, 10 h",reference: DMSO vehicle,inhibition,16%
CC1(C)CC(=O)c2c(C(F)(F)F)nn(-c3ccc(C(N)=O)c(N[C@H]4CC[C@H](O)CC4)c3)c2C1,human alphaherpesvirus 1,,"primary human keratinocytes, K26 GFP",,reference: CC50 over IC50,selectivity index,5.63
CC1=C(C(=O)Nc2cc3cn[nH]c3cc2F)C(c2ccc(C(F)(F)F)cc2)CC(=O)N1 (centres unmarked),murine hepatitis virus,"viral replication, nanoluciferase reporter",DBT,"1 µM, 10 h",reference: DMSO vehicle,inhibition,18%
CCCCCCCC/C=C\CCCCCCCCNC(=O)CP(=O)(O)O,Bacillus cereus,,1056,,,MIC90,0.8 µg/mL
CN(c1ncccc1CNc1nc(Nc2ccc3c(c2)CC(=O)N3)ncc1C(F)(F)F)S(C)(=O)=O,murine hepatitis virus,"viral replication, nanoluciferase reporter",DBT,1 µM,reference: DMSO vehicle,inhibition,34%
O=C1Nc2ccc(I)cc2C1=Cc1cc(Br)c(O)c(Br)c1,Aspergillus fumigatus,,,20 µM,reference: untreated,metabolic activity,≥ 80%
CN1CCN(C(=O)C(C)(C)c2ccc(C(=O)Nc3cn4cc(-c5ccncc5)ccc4n3)cc2)CC1,murine hepatitis virus,"viral replication, nanoluciferase reporter",DBT,1 µM,reference: DMSO vehicle,inhibition,-4%
C=C(CN(C(=O)c1c(C(F)F)nn(C)c1F)C1CC1)c1ccc(Cl)cc1Cl,Phytophthora capsici,,,1.56 mg/L,,mean colony diameter,16.8 mm

# For quick reference, copied from above:
SMILES,organism,test,test system,setting,how to read,quantity,result
COc1cc2oc([N+](=O)[O-])cc2c2ccccc12,Enterobacter cloacae,REMA,,,,MIC90,> 32 µg/mL
Nc1ncnc2c([C@@H]3N[C@H](CO)[C@@H](O)[C@H]3O)c[nH]c12,Measles morbillivirus,viral replication,"Vero 76, Chicago",94.7 µM,,inhibition,74.7%
CNCC(=O)N[C@@H](CO)C(=O)N[C@H]1[C@H](O)[C@@H](O)[C@H](n2ccc(N)nc2=O)O[C@@H]1C(N)=O,tobacco mosaic virus,inactivation activity,in vivo plant,,,EC50,77.4 ± 1.3 µg/mL
Cc1c2c(nn1C)CSCc1cc(n(C)n1)CSc1cc(c3ccccc3c1)OCCCc1c(C(=O)O)n(C)c3c-2c(Cl)ccc13,Staphylococcus aureus,"label-free quantitative proteomics, item: IlvC protein",SA113,concentration not given,reference: untreated control,log2 fold change,5.69
NC(=O)c1cnc(N[C@@H]2CCCC[C@@H]2N)nc1Nc1cccc(-n2nccn2)c1,murine hepatitis virus,"viral replication, nanoluciferase reporter",DBT,"1 µM, 10 h",reference: DMSO vehicle,inhibition,40%
